Published values of several laboratories.
Every numbered part comes from another study and shows a few of its results, in no order.

Sample 1 — technique: protein binding microarray; molecule type: double-stranded DNA, one strand shown; matrix: in vitro; tested at: not given; baseline: not given; reading: higher = stronger binding
Target: Histone acetyltransferase KAT6A, winged helix 1, GST fusion (KAT6A, Homo sapiens, UniProt Q92794, residues 1-85)
Notes: 8-mer, flanks averaged, mean of 2 arrays, mostly near background
Construct (chain): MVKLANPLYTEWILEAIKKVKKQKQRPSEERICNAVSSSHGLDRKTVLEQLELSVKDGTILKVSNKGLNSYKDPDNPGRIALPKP
Sequence	E-score
CGAGGGAA	-0.08
AACCTGCT	-0.166
ATTATGCG	0.0843
ACATGGTC	-0.194

Sample 2 — technique: universal PBM; molecule type: double-stranded DNA, one strand shown; matrix: in vitro; tested at: not given; reading: higher = stronger binding
Target: Sal-like protein 4, full length isoform B (SALL4, Homo sapiens, UniProt Q9UJQ4-2, residues 1-616)
Notes: 8-mer, flanks averaged, mean of replicates
Target sequence (chain): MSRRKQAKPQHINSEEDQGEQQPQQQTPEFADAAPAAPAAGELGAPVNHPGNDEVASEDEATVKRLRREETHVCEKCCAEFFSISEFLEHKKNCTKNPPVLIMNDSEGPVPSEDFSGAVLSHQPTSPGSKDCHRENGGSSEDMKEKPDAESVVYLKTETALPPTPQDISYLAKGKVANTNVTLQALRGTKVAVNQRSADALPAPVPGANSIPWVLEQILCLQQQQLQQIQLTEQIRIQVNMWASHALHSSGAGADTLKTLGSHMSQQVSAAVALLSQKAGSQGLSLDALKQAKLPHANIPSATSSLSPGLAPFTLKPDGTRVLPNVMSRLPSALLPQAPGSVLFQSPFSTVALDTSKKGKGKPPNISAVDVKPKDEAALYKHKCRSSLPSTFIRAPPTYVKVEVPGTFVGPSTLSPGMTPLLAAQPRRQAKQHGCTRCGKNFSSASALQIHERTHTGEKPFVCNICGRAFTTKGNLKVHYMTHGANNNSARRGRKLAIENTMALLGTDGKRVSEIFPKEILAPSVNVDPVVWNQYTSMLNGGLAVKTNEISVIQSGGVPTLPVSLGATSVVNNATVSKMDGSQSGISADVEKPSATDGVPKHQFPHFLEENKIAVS
Sequence	E-score
TGTAACAA	0.179
CCGACGGC	-0.334
AAAGGAAC	-0.0156
GCATACGC	0.0368
CCAGGGTA	-0.229
GCAGCCCA	-0.209

Sample 3 — technique: DNA-protein interaction ELISA; molecule type: double-stranded DNA, one strand shown; matrix: in vitro, bacterial lysate; tested at: not given; notes: whole dsDNA probe, crude lysate protein; baseline: highest signal in screen; reading: higher = stronger binding
Target: Probable WRKY transcription factor 33, C-terminal DNA-binding domain (WRKY33, Arabidopsis thaliana, UniProt Q8S8P5, residues 346-449)
Construct (chain): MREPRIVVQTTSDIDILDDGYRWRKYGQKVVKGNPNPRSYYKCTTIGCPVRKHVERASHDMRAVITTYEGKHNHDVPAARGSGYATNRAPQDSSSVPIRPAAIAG
Sequence	relative absorbance
AAAAAAGAGAATTGTCAGTGCCCAACAAAA	69.2 % of maximum
AAAAAAAATCTTAGCTCTATCTCATCAAAA	43.8 % of maximum
AAAAAAGTCCCGCGCTAAGCTTTAAAAAAA	38 % of maximum
AAAAAAGCTCATGGCCCTGAGGATCTAAAA	46.1 % of maximum
AAAAAATCCCTGCTCCCCTGGTTCCTAAAA	40.2 % of maximum
AAAAAATTTGCGCTTCATCCTGCCCCAAAA	34.3 % of maximum

Other studies, line by line
Molecule	target	assay	system	setting	how to read	quantity	result
PhoQ, residues 284 288 289 292 302 303 ASTSDA	PhoP, residues 12 14 15 18 19 GQAIL (Escherichia coli, UniProt P23836)	Sort-seq, item: YFP reporter	E. coli	PhoQ-PhoP variant library, with: 10 µM Mg2+	baseline: high Mg2+ state, higher = stronger signaling	fold induction	4.75

Repeated from above (other studies, line by line):
Molecule	target	assay	system	setting	how to read	quantity	result
PhoQ, residues 284 288 289 292 302 303 ASTSDA	PhoP, residues 12 14 15 18 19 GQAIL (Escherichia coli, UniProt P23836)	Sort-seq, item: YFP reporter	E. coli	PhoQ-PhoP variant library, with: 10 µM Mg2+	baseline: high Mg2+ state, higher = stronger signaling	fold induction	4.75
